Experimental data from different studies.
Lines come from different studies, so protocols differ. ± marks the error that the study gave.
CHRM1: Muscarinic acetylcholine receptor M1 (CHRM1, Homo sapiens, UniProt P11229)
UniProt P11229, sequence (whole entry, looked up): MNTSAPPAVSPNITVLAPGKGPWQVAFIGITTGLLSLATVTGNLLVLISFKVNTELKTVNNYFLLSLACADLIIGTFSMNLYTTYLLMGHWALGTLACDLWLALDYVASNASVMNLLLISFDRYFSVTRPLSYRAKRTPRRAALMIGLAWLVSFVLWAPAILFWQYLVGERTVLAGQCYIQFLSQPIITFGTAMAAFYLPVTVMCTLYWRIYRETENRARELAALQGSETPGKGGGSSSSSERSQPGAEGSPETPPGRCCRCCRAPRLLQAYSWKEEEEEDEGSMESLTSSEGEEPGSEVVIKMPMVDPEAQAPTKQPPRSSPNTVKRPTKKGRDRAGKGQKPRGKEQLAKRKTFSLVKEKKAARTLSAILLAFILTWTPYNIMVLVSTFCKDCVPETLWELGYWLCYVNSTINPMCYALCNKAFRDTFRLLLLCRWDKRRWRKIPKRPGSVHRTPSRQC
UniProt F4KU78, sequence (whole entry, looked up): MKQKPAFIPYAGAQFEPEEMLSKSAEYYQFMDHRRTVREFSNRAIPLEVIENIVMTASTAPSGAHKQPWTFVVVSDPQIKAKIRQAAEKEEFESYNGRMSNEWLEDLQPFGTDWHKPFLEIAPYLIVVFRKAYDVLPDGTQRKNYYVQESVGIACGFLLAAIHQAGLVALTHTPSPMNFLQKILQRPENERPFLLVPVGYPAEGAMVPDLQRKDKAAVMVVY
UniProt P78362, sequence (whole entry, looked up): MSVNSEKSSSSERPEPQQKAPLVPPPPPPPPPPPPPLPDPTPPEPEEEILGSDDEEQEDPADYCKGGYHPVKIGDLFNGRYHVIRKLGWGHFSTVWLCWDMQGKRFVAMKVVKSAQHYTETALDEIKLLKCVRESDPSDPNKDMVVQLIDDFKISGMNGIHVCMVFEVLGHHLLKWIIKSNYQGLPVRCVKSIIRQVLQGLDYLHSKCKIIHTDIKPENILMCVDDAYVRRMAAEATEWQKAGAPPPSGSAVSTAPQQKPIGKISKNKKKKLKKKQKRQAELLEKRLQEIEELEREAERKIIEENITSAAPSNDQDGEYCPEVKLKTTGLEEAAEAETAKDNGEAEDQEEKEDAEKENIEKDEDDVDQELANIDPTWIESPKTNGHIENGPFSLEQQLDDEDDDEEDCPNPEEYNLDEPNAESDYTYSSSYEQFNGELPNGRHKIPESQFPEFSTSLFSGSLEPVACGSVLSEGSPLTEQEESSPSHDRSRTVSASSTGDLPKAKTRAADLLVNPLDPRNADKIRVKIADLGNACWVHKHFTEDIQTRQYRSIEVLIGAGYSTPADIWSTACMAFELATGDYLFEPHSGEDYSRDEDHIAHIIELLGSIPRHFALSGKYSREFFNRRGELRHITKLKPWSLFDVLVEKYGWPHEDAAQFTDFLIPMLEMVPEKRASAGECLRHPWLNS
UniProt P47205, sequence (whole entry, looked up): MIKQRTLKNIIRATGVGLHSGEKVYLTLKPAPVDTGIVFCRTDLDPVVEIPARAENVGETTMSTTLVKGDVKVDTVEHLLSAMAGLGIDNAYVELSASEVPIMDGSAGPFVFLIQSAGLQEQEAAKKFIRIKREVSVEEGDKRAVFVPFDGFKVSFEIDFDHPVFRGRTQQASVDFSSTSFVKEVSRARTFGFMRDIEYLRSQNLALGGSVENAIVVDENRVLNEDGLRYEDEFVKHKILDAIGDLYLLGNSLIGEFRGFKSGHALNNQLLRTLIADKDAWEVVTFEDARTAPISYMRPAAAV
UniProt Q13164, sequence (whole entry, looked up): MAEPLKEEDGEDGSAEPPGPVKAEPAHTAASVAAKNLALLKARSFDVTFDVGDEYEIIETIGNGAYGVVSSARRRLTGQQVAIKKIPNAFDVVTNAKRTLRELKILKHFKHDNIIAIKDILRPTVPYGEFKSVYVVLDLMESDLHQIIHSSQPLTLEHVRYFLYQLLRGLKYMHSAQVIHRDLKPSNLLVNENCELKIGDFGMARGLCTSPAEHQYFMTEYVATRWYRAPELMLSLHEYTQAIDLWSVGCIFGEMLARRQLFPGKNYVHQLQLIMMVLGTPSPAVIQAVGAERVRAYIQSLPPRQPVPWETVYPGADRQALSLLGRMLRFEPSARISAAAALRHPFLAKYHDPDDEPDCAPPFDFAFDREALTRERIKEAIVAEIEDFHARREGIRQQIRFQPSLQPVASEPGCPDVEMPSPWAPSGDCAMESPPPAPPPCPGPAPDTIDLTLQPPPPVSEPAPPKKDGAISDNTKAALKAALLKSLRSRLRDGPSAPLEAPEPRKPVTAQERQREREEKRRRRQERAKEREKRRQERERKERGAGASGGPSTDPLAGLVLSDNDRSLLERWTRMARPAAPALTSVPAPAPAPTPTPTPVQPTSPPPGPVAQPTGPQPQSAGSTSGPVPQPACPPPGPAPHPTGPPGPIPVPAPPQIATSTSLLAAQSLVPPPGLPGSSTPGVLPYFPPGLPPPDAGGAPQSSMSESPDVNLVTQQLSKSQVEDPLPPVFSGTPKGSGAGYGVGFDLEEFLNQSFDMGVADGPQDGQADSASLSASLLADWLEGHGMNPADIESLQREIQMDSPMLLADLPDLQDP
UniProt P32238, sequence (whole entry, looked up): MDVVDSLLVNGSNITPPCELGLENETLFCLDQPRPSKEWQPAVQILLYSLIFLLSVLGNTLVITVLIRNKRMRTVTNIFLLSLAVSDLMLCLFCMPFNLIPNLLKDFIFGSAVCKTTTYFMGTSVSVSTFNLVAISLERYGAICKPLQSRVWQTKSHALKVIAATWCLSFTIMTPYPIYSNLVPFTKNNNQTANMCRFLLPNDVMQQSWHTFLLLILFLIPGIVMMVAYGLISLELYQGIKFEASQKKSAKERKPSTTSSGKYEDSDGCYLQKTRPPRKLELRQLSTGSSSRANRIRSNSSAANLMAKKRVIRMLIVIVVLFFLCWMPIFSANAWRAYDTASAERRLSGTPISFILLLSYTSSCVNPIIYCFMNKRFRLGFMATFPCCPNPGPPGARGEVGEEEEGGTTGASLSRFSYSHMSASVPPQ
UniProt Q14994, sequence (whole entry, looked up): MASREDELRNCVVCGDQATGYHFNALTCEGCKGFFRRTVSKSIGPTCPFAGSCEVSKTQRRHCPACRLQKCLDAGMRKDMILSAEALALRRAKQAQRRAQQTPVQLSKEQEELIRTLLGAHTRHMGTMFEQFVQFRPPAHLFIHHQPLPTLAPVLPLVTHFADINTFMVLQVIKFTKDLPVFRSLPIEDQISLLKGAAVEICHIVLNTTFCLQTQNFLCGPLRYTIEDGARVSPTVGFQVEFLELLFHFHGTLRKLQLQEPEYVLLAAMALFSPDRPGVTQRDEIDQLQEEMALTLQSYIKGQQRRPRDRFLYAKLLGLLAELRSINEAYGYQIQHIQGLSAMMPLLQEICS
UniProt Q9HC35, sequence (whole entry, looked up): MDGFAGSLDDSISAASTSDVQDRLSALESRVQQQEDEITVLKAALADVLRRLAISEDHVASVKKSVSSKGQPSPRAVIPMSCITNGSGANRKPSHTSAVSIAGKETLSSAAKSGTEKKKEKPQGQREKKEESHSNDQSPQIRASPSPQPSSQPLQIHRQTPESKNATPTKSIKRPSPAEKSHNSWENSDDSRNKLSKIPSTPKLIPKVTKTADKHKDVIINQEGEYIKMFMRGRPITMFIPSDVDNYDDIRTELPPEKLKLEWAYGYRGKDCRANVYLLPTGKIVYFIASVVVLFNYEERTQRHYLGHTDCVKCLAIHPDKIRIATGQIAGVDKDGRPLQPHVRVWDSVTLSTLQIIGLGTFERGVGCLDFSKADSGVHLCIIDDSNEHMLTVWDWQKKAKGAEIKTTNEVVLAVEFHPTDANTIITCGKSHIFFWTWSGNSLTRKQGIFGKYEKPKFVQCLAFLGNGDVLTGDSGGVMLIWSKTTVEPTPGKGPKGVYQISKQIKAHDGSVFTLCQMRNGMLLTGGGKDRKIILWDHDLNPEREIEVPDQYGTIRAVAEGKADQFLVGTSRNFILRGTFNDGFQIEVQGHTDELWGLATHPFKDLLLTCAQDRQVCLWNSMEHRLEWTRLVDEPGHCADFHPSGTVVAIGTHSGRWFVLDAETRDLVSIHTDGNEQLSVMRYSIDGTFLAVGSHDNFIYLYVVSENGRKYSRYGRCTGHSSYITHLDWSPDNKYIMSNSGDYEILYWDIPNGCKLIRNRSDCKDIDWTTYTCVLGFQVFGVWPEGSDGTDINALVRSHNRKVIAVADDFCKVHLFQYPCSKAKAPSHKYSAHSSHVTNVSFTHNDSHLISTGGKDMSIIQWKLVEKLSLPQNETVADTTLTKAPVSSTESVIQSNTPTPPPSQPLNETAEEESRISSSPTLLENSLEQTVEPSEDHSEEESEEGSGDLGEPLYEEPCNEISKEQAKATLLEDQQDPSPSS
UniProt P07437, sequence (whole entry, looked up): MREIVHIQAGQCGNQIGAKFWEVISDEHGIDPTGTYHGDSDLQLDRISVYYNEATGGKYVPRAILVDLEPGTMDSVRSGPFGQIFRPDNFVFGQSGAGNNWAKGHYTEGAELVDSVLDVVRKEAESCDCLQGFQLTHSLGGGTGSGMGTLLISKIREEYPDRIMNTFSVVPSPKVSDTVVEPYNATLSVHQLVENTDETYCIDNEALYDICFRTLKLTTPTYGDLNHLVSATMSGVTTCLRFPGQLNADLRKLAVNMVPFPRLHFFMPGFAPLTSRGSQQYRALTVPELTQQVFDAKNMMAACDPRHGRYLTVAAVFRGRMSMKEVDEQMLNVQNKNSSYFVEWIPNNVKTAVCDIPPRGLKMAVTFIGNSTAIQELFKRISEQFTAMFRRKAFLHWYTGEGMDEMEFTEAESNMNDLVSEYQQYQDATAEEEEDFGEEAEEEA

SMILES | target | test | test system | conditions | how to read | endpoint | value
O=C(Nc1cnccc1Cl)N1CCN(Cc2ccc3c(c2)OC(F)(F)O3)CC1 | ryanodine receptor RyR3, rat | binding |  | 50 µM, together with: [3H]ryanodine |  | inhibition | 2%
CC(CCn1ccc(-c2ccc(-c3cn(CC4CCCCC4)nn3)cc2)cc1=O)(C(=O)NO)S(C)(=O)=O (stereo not drawn) | UDP-3-O-acyl-N-acetylglucosamine deacetylase (Pseudomonas aeruginosa, UniProt P47205) | fluorescence |  | 37 °C |  | residence time | 100 ± 18.5 min
CN(C(=O)n1cnc(-c2ccc[n+]([O-])c2)c1)C1CCCCC1 | CCKAR (Homo sapiens, UniProt P32238) | radioligand binding |  | 50 µM, together with: [3H]L-364,718 |  | inhibition | 4%
N[C@@H](Cc1ccc(O)c(F)c1)C(=O)O | Iodotyrosine deiodinase (Haliscomenobacter hydrossis, UniProt F4KU78) | binding, fluorescence |  |  | baseline: iodotyrosine over compound, higher = weaker than iodotyrosine | affinity ratio | 8 fold
COc1ccc(N2C(=O)N(c3c(C)cccc3Cl)Cc3cnc(Nc4ccc(C5CCN(C)CC5)cc4OC)nc32)nc1 | SRPK2 (Homo sapiens, UniProt P78362) | kinase activity |  | 0.5 µM |  | inhibition | 2.38%
[2H]c1c([2H])c([C@]2([2H])CCCN2C(=O)C(C)(C)Oc2ccc3cn[nH]c3c2)c([2H])c([2H])c1C([2H])([2H])[2H] | MAPK7 (Homo sapiens, UniProt Q13164) | KINOMEscan |  | 1 µM | baseline: DMSO control | remaining binding | 75%
C[C@H]1CN(c2n[nH]c3nc(N[C@H]4CC[C@H](NS(=O)(=O)CCC(F)(F)F)CC4)ncc23)CCO1 | Echinoderm microtubule-associated protein-like 4 (Homo sapiens, UniProt Q9HC35) | Kinobeads competition, refers to: EML4 |  | 0.032 µM, unit not given | baseline: vehicle | remaining binding | 1.09
CN1CCN(c2cc(-c3ccncc3)c(-c3ccc4ccccc4c3)nn2)CC1 | CHRM1 | agonist, FLIPR |  | 12.5 µM |  | activation | 0.2%
C/C=C1\C(=O)C[C@H]2[C@@H]3CCC4=CC(=O)CC[C@]4(C)[C@H]3CC[C@]12C | Nuclear receptor subfamily 1 group I member 3 (Homo sapiens, UniProt Q14994) |  |  | concentration not given |  | activity | inactive
c1cc(N2CCNCC2)c2cc[nH]c2c1 | CHRM1 | ERK1/2 phosphorylation, agonist | CHO cells |  |  | Emax | < 10%
O=C(Nc1cccnn1)N1CCC(=Cc2cccc(Oc3ccc(C(F)(F)F)cn3)c2)CC1 | GABBR1 (Homo sapiens, UniProt Q9UBS5) | radioligand binding |  | 10 µM, together with: [3H]CGP-54626 |  | inhibition of binding | 12%
O=C(c1ccc(Cl)cc1)N1CCN2C(=O)N(OC(=O)N3CCOc4ccccc43)C(=O)C2C1 (stereo not drawn) | TUBB (Homo sapiens, UniProt P07437) | MS-based ABPP | SW-620 conditioned medium | 10 µM | baseline: compound over DMSO, lower = more inhibition | mean protein ratio | 1.07
